Published values of several laboratories.
Each numbered part is a random draw from the data of one study; scales do not carry over between parts. Positions count from the first letter of the parent shown.

Study 1
Target: CCND1, cyclin fold, Cln2 fusion (human)
Method: yeast growth competition, sequencing
Matrix: yeast
Setting: weak parent motif
Baseline: not given
Reading: higher = stronger binding
Starting sequence: CDC25A docking peptide (human); PPHRRRLLFACSP; partner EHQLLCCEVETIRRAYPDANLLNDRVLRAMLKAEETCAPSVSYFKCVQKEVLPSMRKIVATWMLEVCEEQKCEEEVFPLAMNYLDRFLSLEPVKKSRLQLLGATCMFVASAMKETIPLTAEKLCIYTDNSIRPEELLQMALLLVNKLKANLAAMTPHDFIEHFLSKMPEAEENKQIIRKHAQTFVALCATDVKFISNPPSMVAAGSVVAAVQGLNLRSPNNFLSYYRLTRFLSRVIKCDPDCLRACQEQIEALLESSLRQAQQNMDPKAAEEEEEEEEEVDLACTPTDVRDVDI
Change	normalised enrichment score
R5T	-0.0575
H3E	-0.343
S12G	0.37
R5A R6A L7A L8A	0.148
A10L	-0.045
C11E	-0.556
P2H	0.388
P2S	-0.0312
C11W	0.17
S12R	0.421
A10W	0.492
S12W	0.558
P1A	0.000853
R6Q	0.262
P2N	0.25
C11K	-0.399
R6W	1.16
F9D	-0.694
P1G	-0.123
R5Y	-0.193
P1S	0.473
R4W	0.367
P13W	-0.199
H3L	0.359
L8F	-0.0218

Study 2
Target: RNA binding protein fox-1 homolog 2, RRM domain, GST-SBP tag (RBFOX2, Homo sapiens, UniProt O43251-10, residues 100-194)
Method: RNA Bind-n-Seq
Form: RNA
Matrix: in vitro
Concentration: 365 nM
Setting: natural RNA segment, single round, ends assumed
Baseline: no-protein control
Reading: higher = stronger binding
All sequences stand within: GGGAGUUCUACAGUCCGACGAUC … UGGAAUUCUCGGGUGCCAA
Target sequence (chain): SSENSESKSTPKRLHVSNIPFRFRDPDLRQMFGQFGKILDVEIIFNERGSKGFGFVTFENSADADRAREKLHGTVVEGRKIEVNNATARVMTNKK
Sequence	RBNS enrichment (R)
GGGCUGGACUGUGAGCAGCUCUGGGUUAAUACAGGGCAGGCAAUCCUUAAACAGCUAGCAUGAAACAGUUUUGUCGUGGCCACCAGGCUUCUGUGGGAACAGUCCUUCUC	4.25
AUUUUGGUACAGUGUUUGUUUCCUAAUAUUUAUUAACCACCUUAUACCAAAUGUCUUGCAAAGAAAUGUUAUUAAAACCUUGAAUUUUUACAAAUGUAAAAAACAAAAAG	1.5
UGUUUGUCUAGUCUGUGAAUGGCCGGCUUCAGUGAUUGACAUGCUGUUAGCCCAGUGAGUUCUCCACAGUUACUGUAUGUGAUCUUCAUGGGCAGCAAAUGGAAAGUCUU	0.256
GGGGGGGCUGGGAAGUCCCCUGCAUCCCAUGGUACCCUGGUAUUGGGACAGCAAAAGCCAGUAACCAUGAGUAUGAGGAAAUCUCUUUCUGUUGCUGGCUUACAGUUUCU	2.71
CUUGGUGCUUGAGGUCUCCCUGCUCUUGGUGGCAGUGGUAGCAGCAACAGCAGCAGCAGCAGCAGCAGCAGCAGCAGAGACCUCUCCACUUUCCCUUAGCCCCUCUGCUG	0.287
CUUGGACCUCUACCAAAACAUAUGAUACAGAAAACCAGGAAACGUAAAUAUUUUCACCACGAUCGAUUAGACUGGGAUGAACACAGUUCUGCCGGCAGAUAUGUUUCAAG	0.356
AGGUUCCGGACACAGGCUUCUGGGGGAAGGGUCUCCCUUGGCCAUCACGGGAAUGGAGUCCAUGCUAGAAAGAGCUCAGUGUUGGGCUGGGUUUGCCAGUAGAACACUGC	0.587
GAUCAGAAUAAUUAUCACAGGAACUUAAAUGUUAAGCCAUUAGCAUAGAAAAACUGUUCUCAGUUUUAUUUUUACCUAACACUAACAUGAGUAACCUAAGGGAAGUGCUG	0.35
GAGCCUGGCAUACACACUCUGCAUGUUACUUCUUGAGAACUAGACCUGUGUGCCUGUGUUUUCCUGAACAGCUGCUUUCUGUCAGGCAGACUCCUCUGACCUGGAUGCGG	4.13
UCCCUACCCCUGCUCCCCUCAGACAUGGGGCAGGAAACAGCAGGUGCGCUGGGCAGGAGGAAGGCAUGUGCUUCCUCCCCAGCCACCACCCCUCCCACAGCACCCAGCCU	17
UGUUAAUUUGUUUUAAGAGAAUUAUAUUUUUUGGAAUUUACAGAGAAUUGCAUUCAUGGCUUUCAAUUGUAAAUAUGCUAAGGGUAUUUUAAUAAAUCUUGGUUUCAUGU	0.699
AGGGGUGCUGUAAGAACUCAGGUUAGUAGCAUACUUGAGUAAUCAGGGUCAAAGUGUCUCACCACAAACAAAGGUAUCAAAUCACAAGCCUGGCUGGCUGAGGUGGUGUG	0.705

Study 3
Target: Centromere-binding protein 1, full length, N-terminal tag (CBF1, Saccharomyces cerevisiae, UniProt P17106, residues 1-351)
UniProt P17106, sequence (whole entry, looked up): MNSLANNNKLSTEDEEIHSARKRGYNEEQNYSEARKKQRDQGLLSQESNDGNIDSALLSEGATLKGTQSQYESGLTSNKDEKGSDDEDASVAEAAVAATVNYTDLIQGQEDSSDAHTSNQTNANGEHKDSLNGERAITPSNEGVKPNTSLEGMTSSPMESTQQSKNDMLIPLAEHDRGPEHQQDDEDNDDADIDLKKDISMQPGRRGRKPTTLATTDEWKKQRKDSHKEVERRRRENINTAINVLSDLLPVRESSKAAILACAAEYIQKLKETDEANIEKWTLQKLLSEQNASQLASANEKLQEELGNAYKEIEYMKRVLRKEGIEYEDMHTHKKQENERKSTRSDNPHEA
Method: protein-binding microarray
Form: double-stranded DNA, one strand shown
Matrix: in vitro
Concentration: 0.8 µM
Setting: whole 60-bp probe, no competitor
Reading: higher = stronger binding
All sequences stand within: … GTCTTGATTCGCTTGACGCTGCTG
Sequence	fluorescence intensity [a.u.]
CTAGCACCTTGTCGTCATGAGACCCATTTCGTATTC	699
CTAGAGAAGTACTGATGGCTAATAATTGTTGGATTC	518
GAACAAACACATTTGTAGGTGATGATGACAGCTTAG	500
CTAAAACTTGAAAGTCTGGTGAGATTAGATATCTTC	490
CTAAAAGCTTGATGACATGTGATAGCACACCATTTC	1570
CTACCCATATGGATGCACGTTGAAAGCACTGTGTTC	570
CTAGGTCAAAAAAATCAGGTGGATACATAACTTTTC	753
GAAATTTGTCCAATCGACGTGGTGGAAAGACTCTAG	528
GAACCTGCATGAAGGCACGCTCTAATATATATGTAG	574
GAAGCATATTGCACTAACGTGAGGTGTACATCATAG	526
CTATTTGTACGTATTCACATGTCCTGGCGTGCGTTC	753
GAATGTTTATGACTTCACGCGACATGTATAGATTAG	704
GAATACAGTTAGCTGCACATGTTTCTCGAATAGTAG	686
CTAGTCACTCCGTCACACATGACAGAATTGCGTTTC	875
CTAGCAAGATCGTATCAGGAGAATGAACGGGTCTTC	529
CTACTCCTTATGTTTGGTGTCACTGTAAAGCGGTTC	542
CTAGCTTGCCCTTACATCAGAATTACCAAGCAATTC	499
GAACATAGTTTAGATCACGCTTAATAATGTCAATAG	883

Study 4
Target: Interferon regulatory factor 3, full length, phosphomimetic (IRF3, Homo sapiens, UniProt Q14653, residues 1-427, S386D/S396D/S398D/S402D/T404D/S405D)
Method: protein-binding microarray
Form: double-stranded DNA, one strand shown
Matrix: in vitro
Concentration: 2540 nM top
Setting: 60-bp whole probe
With: salmon DNA 0.4 mg/ml
Baseline: random background probes
Reading: higher = stronger binding
All sequences stand within: GCCTAGCAC … GTCTTGATTCGCTTGACGCTGCTG
Residues (chain): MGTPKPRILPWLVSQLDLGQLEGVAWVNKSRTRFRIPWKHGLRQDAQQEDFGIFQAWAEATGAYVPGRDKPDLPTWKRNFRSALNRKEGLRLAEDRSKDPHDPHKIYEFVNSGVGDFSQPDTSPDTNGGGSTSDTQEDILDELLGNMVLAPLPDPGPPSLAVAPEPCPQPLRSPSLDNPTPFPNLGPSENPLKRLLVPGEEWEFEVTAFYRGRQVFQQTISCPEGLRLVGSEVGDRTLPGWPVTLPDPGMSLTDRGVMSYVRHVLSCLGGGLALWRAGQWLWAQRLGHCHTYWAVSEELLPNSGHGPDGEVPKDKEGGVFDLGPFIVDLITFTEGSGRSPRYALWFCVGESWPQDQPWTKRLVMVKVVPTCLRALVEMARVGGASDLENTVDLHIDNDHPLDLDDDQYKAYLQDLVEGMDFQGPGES
Sequence	fitted relative affinity [z-score]
TTAGGACTGGAAACTGGGTTAGTGCTA	-0.106
GACGGTTTCGGTTCCGGGTCGTGCTAG	10.5
TTAGGACTGGGGTTTCGGCTAGTGCTA	-0.276
ATATATGTGTATATATAATAGTGCTAG	0.712
GACGGACTGGGGTTTCTGGACGTGCTA	-0.673
GACGGTATCGACTTCCGGGACGTGCTA	1.03
CACGATTTCAGTCTCGAGACGTGCTAG	1.94
GACGGTTTCGGGACCGGGGACGTGCTA	4.23
TTAGAACTGTGTCTCGATTAGTGCTAG	-0.2
TCAGAATTCAGAATGGGACTGTGCTAG	0.513
GACCGTTTCCTTTTCCTGACGTGCTAG	9.19
TTAGGTTCCCTTCTCCTTTAGTGCTAG	8.03
TTAGGTATCGGGTATGGGTTAGTGCTA	1.02
TCACAAAAATGATTGGTACTGTGCTAG	-0.208
TTAGAACTGGGTACTGGATTAGTGCTA	-0.667
TTAGGTATCGAATTTCGGTTAGTGCTA	2.01

Single results of other studies
Substance	target	assay	system	conditions	scale	quantity	value
PhoQ, residues 284 288 289 292 302 303 QWGLFV	PhoP, residues 12 14 15 18 19 NHFIF (Escherichia coli, UniProt P23836)	Sort-seq, measured: YFP reporter	E. coli	PhoQ-PhoP variant library, with: 10 µM Mg2+	baseline: high Mg2+ state, higher = stronger signaling	fold induction	8.81

Some of these lines once more (study 2):
Sequence	RBNS enrichment (R)
CUUGGUGCUUGAGGUCUCCCUGCUCUUGGUGGCAGUGGUAGCAGCAACAGCAGCAGCAGCAGCAGCAGCAGCAGCAGAGACCUCUCCACUUUCCCUUAGCCCCUCUGCUG	0.287
CUUGGACCUCUACCAAAACAUAUGAUACAGAAAACCAGGAAACGUAAAUAUUUUCACCACGAUCGAUUAGACUGGGAUGAACACAGUUCUGCCGGCAGAUAUGUUUCAAG	0.356
AGGUUCCGGACACAGGCUUCUGGGGGAAGGGUCUCCCUUGGCCAUCACGGGAAUGGAGUCCAUGCUAGAAAGAGCUCAGUGUUGGGCUGGGUUUGCCAGUAGAACACUGC	0.587
GAUCAGAAUAAUUAUCACAGGAACUUAAAUGUUAAGCCAUUAGCAUAGAAAAACUGUUCUCAGUUUUAUUUUUACCUAACACUAACAUGAGUAACCUAAGGGAAGUGCUG	0.35
GAGCCUGGCAUACACACUCUGCAUGUUACUUCUUGAGAACUAGACCUGUGUGCCUGUGUUUUCCUGAACAGCUGCUUUCUGUCAGGCAGACUCCUCUGACCUGGAUGCGG	4.13
UCCCUACCCCUGCUCCCCUCAGACAUGGGGCAGGAAACAGCAGGUGCGCUGGGCAGGAGGAAGGCAUGUGCUUCCUCCCCAGCCACCACCCCUCCCACAGCACCCAGCCU	17
UGUUAAUUUGUUUUAAGAGAAUUAUAUUUUUUGGAAUUUACAGAGAAUUGCAUUCAUGGCUUUCAAUUGUAAAUAUGCUAAGGGUAUUUUAAUAAAUCUUGGUUUCAUGU	0.699
